Measured values gathered from unrelated publications.
Numbered parts are unrelated; each lists some results of a single study. Substitutions count along the parent as printed.

Set 1
Target: RING finger protein unkempt homolog, zinc fingers 1-6, GST-SBP tag (UNK, Homo sapiens, UniProt Q9C0B0, residues 30-357)
Technique: RNA Bind-n-Seq
Form: RNA
Matrix: in vitro
Tested at: not given
Setting: RNA with constant flanks, human and mouse sites, ends assumed
Baseline: input RNA pool
Direction: higher = stronger binding
Residues (chain): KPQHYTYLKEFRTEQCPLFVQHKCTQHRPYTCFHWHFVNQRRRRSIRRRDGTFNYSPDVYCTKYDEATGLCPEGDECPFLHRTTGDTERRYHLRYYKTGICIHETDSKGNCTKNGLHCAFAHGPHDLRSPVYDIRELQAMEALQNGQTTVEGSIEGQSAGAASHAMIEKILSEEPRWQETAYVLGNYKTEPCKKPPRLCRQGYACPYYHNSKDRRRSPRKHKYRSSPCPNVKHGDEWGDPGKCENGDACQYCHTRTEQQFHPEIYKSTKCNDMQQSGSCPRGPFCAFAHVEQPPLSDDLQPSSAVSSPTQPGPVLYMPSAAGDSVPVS
Strand	bound/input enrichment
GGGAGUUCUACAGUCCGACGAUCAUCUUAUUACAGGGACUUGCUGUGCUUGCAAAGGAAAGACCACCAAAUCCCAUUGAAUUUCUAGCAUCUUAUCUUUUAAAAAACAAGGCACAGUUUGAAGAUCGAAACUGACUUAAUGGGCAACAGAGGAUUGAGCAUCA	2.65 ratio
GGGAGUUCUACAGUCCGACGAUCCUACCUGAGCAGUCCCCAGGAGAAUUUGACUUUAAUGAAUUCUUUAACCUUGAUAAGGUGCCAUGCUUGGCUUCGAUGAUAGAAGAUGUUCUGGGGGAAGGAUCGGUCUCUGCCAGCCGCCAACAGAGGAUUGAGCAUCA	0.203 ratio
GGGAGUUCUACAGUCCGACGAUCACUUCAUCUUCCUCCUCUGAAGAUGAACAGCACUUUGAGAGGCGGAGGAAAAGGAGUCGUAAUAGGGCUAUCAAUAGGUGCCUCCCACUAAAUUUUCGGAAAGAUGAAUUAAAAGGCAUUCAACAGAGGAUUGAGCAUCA	0.17 ratio
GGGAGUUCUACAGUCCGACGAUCUUCCCCCACUGGGAAUGCUGGCUGGGAGAGCCAUGACUACCAGACUUUUCCUCAGGCUCCUUGGCAUGUUAGUCUGAAUUGUUCUUGAGCACUGUACUACUGACCCAACAACUGUGACUACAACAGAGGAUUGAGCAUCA	0.178 ratio
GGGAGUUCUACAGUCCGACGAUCUAUGAUGCCCUGGUUGCCAUGACUAUCUUUUUCAACACUCAAAAUGAGCCAGUACGGCAAUUAGCUAUCUUCUGUCCACACGAGGCACUUCGAAUGACAAUCUGUGGCAUCCUGGAACGACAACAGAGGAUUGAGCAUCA	0.254 ratio
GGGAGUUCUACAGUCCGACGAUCAUCAGAAGAGUGAAAUCUCAUAAGGAAUUUUUGAAUAAAACAACACACCAGCUUUUGUUUGUUAGACAUCAGUUUAAAAUAGCUUUCUUCAGUGAGUUGAAACAAGAUACACAAAACGCCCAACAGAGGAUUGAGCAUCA	0.848 ratio
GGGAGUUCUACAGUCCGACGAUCCAGGGCUACCCUCUGAUGGGGUCCCCCUUGCUAAUGACCUCCAUUCUCCUGACCUACGUGUACUUCGUUCUCUCACUUGGGCCUCGCAUCAUGGCUAAUCGGAAGCCCUUCCAGCUCCGUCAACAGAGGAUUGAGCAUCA	0.0887 ratio
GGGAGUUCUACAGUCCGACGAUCUUAAUCUCAACUAAAGAUAUAGUUCUGUGGUAGCCAUUGUUUUACAAUGAAAUAACUGCAACUAGAGAAAAAAAACUGUAUAAAAACAUUAAAUUGUCAGUAUUUUUGUAAGAUUCCGUUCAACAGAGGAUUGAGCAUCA	0.278 ratio
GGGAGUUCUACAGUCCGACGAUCUCCUCACUUACUGGAAGUGGGAAGAGAAAUAGGAUAAGAAGUUCUCUGCCAUGGAGGCAAAAUAGUUGGAAAGGGUACAGUGAAAACAUGAGGAAGCUCAGAAAGACUCAUGAUAUUCCACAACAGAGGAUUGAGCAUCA	0.472 ratio
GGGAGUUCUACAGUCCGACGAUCAGAGACUGAACAGUCCACAUCAUCAGCUCCUUAUACCUUCGCAGCCUCCCUCUCCAAACCUAGCAGGGCCCUGCUUCCCUCCCCACCUGACAUCCAGCCGUGGAUGAGGGGCCUGCUUAGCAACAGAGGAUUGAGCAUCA	0.35 ratio
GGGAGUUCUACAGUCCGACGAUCCCACGCUGUGGUUUCAGCAAGCAGAUGGUGGAAAUCCUUCACAAACACAAUAUUCAGUUCAGCAGCUUUGAUAUCUUCUCAGAUGAAGAAGUUCGACAGGGGCUCAAAACGUACUCUAAUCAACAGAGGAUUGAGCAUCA	0.0839 ratio

Set 2
Target: POU domain, class 5, transcription factor 1, POU domain (Pou5f1, Mus musculus, UniProt P20263, residues 131-289)
UniProt P20263, sequence (131-289, looked up): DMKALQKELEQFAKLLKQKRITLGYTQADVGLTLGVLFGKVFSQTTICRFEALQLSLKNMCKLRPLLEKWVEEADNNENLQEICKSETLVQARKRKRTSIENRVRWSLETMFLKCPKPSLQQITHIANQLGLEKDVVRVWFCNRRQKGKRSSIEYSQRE
Technique: Spec-seq
Form: double-stranded DNA, one strand shown
Matrix: in vitro
Tested at: not given
Setting: whole probe, mean of replicates
Baseline: not given
Direction: lower = stronger binding
Shared flanks, not repeated: GAGTCGTCTCGTCAGCAC … CCGTAGAGCACTCAGGTC
Strand	relative binding energy [ln ratio]
ATGCTCGG	0.79
ATGCAGAC	-0.105
ATACAGAT	0.396
ATAACTAT	-0.416
ATGCGGTC	0.515
CTCTTAAT	0.856
ACAGTAAT	0.558
ATGCGCCA	0.41
ATGCAATG	-0.0403
ATTATGAT	0.209
ATGCACAG	0.0511
GAATTAAT	-0.445
CTGATAAT	0.733
TAGCTAAT	0.463
GTTTTAAT	0.418
ATGTATAT	-0.835
ATTTTCAT	-0.0381
ATGCACAT	-0.0589
ATGAATAT	-2.24
ATTCCAAT	-0.088

Set 3
Target: ABI1, truncated, D143A, DHFR fusion (Arabidopsis thaliana)
Technique: DHFR PCA, deep sequencing
Matrix: yeast
Setting: methotrexate growth selection, single substitutions
Added: (+)-ABA 1.4 µM
Baseline: wild-type fitted maximum
Direction: higher = stronger binding
Parent: PYL1, truncated, DHFR fusion (Arabidopsis thaliana); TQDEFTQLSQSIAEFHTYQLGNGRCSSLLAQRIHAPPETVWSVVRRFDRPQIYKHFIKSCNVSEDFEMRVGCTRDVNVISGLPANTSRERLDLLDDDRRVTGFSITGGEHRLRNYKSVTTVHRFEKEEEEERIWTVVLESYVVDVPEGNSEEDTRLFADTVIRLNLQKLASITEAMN
Change	relative binding score [%]
S140N	-7.92
D48S	4.69
E127L	58.9
Y115H	11.9
Q7T	58.5
P146M	-1.64
L138S	2.83
R155F	-32.8
I133M	58.4
L8W	44.3
K58F	2.57
W41M	-1.86
H16S	-8.63
E64Q	55.4
V118T	66.8
E129Y	48.7
E152Q	38.8
N149W	5.27
I172V	62.3
E125L	50.8
D153E	69.6
M176P	30
Q19S	59.7
W41R	1.77
K54N	5.93

Set 4
Target: PABPC1L2, full length, GST fusion (mouse, UniProt A0ABA7IW68)
Technique: RNAcompete
Form: RNA
Matrix: in vitro
Tested at: 20 nM
Setting: 7-mer, probes averaged, single round
Baseline: mean of 7-mers
Direction: higher = stronger binding
Target sequence (chain): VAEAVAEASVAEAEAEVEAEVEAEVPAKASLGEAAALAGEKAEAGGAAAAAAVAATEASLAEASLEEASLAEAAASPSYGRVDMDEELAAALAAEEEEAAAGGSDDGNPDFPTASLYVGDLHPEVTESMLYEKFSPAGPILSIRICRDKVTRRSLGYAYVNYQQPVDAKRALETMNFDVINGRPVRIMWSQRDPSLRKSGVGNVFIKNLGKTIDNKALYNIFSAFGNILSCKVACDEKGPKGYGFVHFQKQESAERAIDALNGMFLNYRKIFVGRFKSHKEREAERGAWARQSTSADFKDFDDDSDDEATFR
Strand	7-mer Z-score
GUUUGAC	-0.403
GGGAGUU	-0.079
CCAACGU	-0.121
CCCGUAU	-0.277
GAUCCGU	-0.311
GGUCAGU	-0.106
GGGGGAG	0.334
GCUGCCA	-0.0409
GCAUGUC	-0.104
CCAUGUU	-0.336
CCGUUCA	-0.378
ACAGCGA	0.0895
GUUUCUA	-0.329
GGCGGGC	0.36
GUUUUGU	-0.463
UAUCGCG	-0.302
UAUGAUA	-0.0971
AGCCGGG	0.144
AGGCAGG	0.283
AGACAUA	0.0424
CACCGUA	-0.233
UUGAGUG	-0.246
AUCAGUC	-0.19
UGCGGUA	0.0207

Set 5
Target: CCNE1, cyclin fold, Cln2 fusion (human)
Technique: yeast growth competition, sequencing
Matrix: yeast
Setting: weak parent motif
Baseline: not given
Direction: higher = stronger binding
Parent: ORC1 docking peptide (human); PRARKRLELGNLG
Change	normalised enrichment score
PRFRKRLELGNLG [A3F]	0.138
PCARKRLELGNLG [R2C]	0.154
PRARKRLHLGNLG [E8H]	0.0867
PRARKRSELGNLG [L7S]	0.00569
PRARKRLETGNLG [L9T]	0.22
PNARKRLELGNLG [R2N]	0.576
PRAMKRLELGNLG [R4M]	0.0914
ERARKRLELGNLG [P1E]	0.782
PRARKRGELGNLG [L7G]	-0.505
PRARKRTELGNLG [L7T]	-0.455
PRARQRLELGNLG [K5Q]	-0.261
PRALKRLELGNLG [R4L]	0.27
HRARKRLELGNLG [P1H]	0.357
PRARGRLELGNLG [K5G]	-0.126
PRARKRLWLGNLG [E8W]	1.3
PRARKRLALGNLG [E8A]	0.581
PRARKRLTLGNLG [E8T]	-0.0804

A few entries again (set 3):
Change	relative binding score [%]
W41M	-1.86
H16S	-8.63
E64Q	55.4
V118T	66.8
E129Y	48.7
E152Q	38.8
N149W	5.27
I172V	62.3
E125L	50.8
